Experimental data collected from several papers.
A part holds a random share of what one study measured.
UniProt P10721, sequence (whole entry, unmodified, looked up): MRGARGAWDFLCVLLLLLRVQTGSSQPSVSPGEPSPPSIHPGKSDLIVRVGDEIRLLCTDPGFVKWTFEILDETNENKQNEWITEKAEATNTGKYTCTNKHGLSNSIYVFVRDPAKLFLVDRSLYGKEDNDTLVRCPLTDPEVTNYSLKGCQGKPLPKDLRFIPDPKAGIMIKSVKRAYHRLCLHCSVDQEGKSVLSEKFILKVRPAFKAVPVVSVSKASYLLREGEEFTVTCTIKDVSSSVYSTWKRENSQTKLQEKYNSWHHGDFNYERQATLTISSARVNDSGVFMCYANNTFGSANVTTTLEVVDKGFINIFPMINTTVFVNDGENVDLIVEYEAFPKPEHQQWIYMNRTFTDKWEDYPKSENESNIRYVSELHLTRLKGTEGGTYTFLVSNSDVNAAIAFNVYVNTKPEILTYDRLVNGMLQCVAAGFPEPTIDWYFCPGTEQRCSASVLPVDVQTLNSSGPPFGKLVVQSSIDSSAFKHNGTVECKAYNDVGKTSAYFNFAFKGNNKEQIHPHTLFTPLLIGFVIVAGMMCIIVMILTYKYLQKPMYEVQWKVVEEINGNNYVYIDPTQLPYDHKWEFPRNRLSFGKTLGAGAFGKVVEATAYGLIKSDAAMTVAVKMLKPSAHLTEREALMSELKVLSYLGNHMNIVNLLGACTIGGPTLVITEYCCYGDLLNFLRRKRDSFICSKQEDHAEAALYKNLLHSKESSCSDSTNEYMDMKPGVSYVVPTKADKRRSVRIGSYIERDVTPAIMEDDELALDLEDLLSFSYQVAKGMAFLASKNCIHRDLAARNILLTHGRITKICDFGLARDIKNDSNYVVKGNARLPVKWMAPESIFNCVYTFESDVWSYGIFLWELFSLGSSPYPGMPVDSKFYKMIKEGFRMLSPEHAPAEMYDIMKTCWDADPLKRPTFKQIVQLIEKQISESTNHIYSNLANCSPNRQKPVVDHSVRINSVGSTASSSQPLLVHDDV
UniProt P42336, sequence (whole entry, unmodified, looked up): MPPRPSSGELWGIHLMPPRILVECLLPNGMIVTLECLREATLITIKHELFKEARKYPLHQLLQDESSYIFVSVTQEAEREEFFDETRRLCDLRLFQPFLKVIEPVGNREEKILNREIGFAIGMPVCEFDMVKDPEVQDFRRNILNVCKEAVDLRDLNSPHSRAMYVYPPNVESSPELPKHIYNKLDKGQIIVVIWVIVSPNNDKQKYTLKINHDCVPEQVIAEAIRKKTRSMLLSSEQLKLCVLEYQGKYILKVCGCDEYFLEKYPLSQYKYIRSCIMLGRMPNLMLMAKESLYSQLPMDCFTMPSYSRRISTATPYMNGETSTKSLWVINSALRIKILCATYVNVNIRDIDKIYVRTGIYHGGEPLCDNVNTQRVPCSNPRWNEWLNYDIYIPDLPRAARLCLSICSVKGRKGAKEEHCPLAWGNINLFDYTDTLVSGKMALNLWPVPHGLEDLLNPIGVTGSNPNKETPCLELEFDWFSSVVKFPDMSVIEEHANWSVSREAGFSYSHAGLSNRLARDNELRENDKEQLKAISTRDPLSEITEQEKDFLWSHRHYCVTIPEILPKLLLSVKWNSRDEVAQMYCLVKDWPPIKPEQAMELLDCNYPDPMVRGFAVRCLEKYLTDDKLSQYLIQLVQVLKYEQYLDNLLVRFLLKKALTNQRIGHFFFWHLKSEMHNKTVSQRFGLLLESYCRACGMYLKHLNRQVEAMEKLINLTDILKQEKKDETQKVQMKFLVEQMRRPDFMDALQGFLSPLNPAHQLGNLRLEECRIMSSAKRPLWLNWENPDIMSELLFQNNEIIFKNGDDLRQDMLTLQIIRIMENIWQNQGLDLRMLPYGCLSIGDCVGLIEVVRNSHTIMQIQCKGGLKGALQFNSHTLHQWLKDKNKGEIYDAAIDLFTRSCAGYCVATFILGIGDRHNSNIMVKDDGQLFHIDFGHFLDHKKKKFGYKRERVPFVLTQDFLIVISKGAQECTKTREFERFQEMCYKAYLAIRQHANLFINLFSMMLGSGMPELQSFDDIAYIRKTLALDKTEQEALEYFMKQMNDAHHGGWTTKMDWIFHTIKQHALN
UniProt Q15208, sequence (whole entry, looked up): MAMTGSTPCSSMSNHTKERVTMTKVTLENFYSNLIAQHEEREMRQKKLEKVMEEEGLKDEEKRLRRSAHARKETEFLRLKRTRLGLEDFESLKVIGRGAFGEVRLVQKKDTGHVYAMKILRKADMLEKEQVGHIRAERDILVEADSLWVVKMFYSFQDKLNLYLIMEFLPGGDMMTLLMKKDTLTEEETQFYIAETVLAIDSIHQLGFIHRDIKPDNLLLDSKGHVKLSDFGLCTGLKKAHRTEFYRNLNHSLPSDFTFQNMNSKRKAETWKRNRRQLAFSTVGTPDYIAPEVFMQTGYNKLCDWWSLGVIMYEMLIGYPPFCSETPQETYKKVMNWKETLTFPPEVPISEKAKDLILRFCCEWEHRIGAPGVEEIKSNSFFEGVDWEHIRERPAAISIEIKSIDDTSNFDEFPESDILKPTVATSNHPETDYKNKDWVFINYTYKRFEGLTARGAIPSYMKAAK
UniProt P51955, sequence (whole entry, looked up): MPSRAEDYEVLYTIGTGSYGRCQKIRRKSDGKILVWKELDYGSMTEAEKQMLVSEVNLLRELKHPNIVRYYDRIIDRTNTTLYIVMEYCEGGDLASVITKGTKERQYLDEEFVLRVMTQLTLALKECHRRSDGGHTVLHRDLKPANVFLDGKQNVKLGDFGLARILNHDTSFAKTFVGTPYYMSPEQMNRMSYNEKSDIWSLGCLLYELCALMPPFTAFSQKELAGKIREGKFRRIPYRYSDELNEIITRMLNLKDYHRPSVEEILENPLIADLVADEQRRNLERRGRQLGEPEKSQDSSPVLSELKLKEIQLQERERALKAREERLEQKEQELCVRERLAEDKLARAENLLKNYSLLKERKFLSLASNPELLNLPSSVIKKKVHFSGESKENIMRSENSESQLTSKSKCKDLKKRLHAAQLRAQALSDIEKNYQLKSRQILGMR
UniProt O76039, sequence (whole entry, looked up): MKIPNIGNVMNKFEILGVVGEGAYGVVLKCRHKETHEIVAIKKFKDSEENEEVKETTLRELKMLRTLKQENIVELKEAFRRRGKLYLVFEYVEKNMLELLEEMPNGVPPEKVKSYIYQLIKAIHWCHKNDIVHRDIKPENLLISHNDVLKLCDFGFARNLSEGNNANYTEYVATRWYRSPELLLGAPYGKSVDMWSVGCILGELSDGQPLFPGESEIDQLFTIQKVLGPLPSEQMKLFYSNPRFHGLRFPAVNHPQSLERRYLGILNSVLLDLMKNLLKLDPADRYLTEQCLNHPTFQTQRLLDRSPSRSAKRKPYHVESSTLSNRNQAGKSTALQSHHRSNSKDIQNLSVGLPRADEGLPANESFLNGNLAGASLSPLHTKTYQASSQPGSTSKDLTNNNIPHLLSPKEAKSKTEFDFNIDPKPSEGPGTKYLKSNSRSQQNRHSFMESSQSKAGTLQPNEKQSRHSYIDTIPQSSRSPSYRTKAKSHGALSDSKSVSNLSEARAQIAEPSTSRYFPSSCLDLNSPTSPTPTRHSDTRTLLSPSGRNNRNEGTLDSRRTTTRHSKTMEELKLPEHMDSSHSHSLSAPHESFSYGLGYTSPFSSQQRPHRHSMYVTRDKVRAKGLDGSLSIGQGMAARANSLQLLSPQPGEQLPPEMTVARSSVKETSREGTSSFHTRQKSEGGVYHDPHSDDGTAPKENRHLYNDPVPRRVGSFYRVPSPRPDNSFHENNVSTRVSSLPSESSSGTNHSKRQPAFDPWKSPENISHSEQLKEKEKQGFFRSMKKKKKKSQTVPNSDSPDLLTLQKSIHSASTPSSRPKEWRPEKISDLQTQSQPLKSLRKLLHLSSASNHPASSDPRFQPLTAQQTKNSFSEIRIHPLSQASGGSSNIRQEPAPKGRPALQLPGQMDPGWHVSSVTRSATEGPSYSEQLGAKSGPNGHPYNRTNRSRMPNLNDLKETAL
UniProt Q9HAZ1, sequence (whole entry, looked up): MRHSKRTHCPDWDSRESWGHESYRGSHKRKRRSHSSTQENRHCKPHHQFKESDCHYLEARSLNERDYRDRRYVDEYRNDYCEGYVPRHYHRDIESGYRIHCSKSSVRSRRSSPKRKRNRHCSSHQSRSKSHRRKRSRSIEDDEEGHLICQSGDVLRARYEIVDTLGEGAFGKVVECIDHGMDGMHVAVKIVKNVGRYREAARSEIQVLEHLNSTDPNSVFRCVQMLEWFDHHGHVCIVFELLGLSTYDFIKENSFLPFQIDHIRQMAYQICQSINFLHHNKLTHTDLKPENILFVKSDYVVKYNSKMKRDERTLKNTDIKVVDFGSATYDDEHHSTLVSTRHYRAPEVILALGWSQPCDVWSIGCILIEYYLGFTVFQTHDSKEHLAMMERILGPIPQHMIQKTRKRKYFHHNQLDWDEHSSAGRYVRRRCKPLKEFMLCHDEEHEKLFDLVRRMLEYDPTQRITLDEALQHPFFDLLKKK

Study 1
Cell line: HaCaT
Tested at: 100 µM
Time: 18 h
With `CC1(C)CCC(C)(C)c2cc(NC(=O)c3ccc(C(=O)O)cc3)ccc21` the viability was 55.7%.
`CN(C(=O)CN(CCO)CC(=O)N(C)C(C)(C)Cc1ccccc1)C(C)(C)Cc1ccccc1` has a viability of 16.3%.
`CCN[C@H]1CN(CCCOC)S(=O)(=O)c2sc(S(N)(=O)=O)cc21` has a viability of 96.5%.
`CN[C@@H]1[C@H](O)[C@H](NC)[C@H]2O[C@@]3(O)C(=O)C[C@@H](C)O[C@H]3O[C@@H]2[C@H]1O` gave a viability of 112%.
`N[C@@H](Cc1c[nH]c2ccc(O)cc12)C(=O)O` has a viability of 111%.
For `CN(C)CCc1c[nH]c2ccc(Cn3cncn3)cc12`, the viability was 113%.
For `C[C@@H](Oc1cc(-c2cnn(C3CCNCC3)c2)cnc1N)c1c(Cl)ccc(F)c1Cl`, the viability was 18.1%.
With `CC(=O)Oc1ccc(C(c2ccc(OC(C)=O)cc2)c2ccccn2)cc1` the viability was 17.4%.
`OC1(c2ccc(Cl)c(C(F)(F)F)c2)CCN(CCCC(c2ccc(F)cc2)c2ccc(F)cc2)CC1` has a viability of 21.4%.

Study 2
SMILES: CC#CC(=O)N1CCC[C@H]1c1nc(-c2ccc(C(=O)Nc3ccccn3)cc2)c2c(N)nccn12
Mode: inhibitor
Tested at: 1 µM
For EPHA7 (Homo sapiens, UniProt Q15375); enzyme activity: inhibition read 8%.
The inhibition was 0% (Ribosomal protein S6 kinase alpha-1, kinase domain 2 (RPS6KA1, Homo sapiens, UniProt Q15418)).
It gave 0% for inhibition (CSNK1G1 (Homo sapiens, UniProt Q9HCP0); enzyme activity).
It gave 1% for inhibition (STK35 (Homo sapiens, UniProt Q8TDR2); enzyme activity).
The inhibition was 0% (HIPK3 (Homo sapiens, UniProt Q9H422); enzyme activity).
For CDK11B (Homo sapiens, UniProt P21127); enzyme activity: inhibition read 2%.
It gave 31% for inhibition (KIT (Homo sapiens, UniProt P10721, T670I/V559D); enzyme activity).
The inhibition was 0% (NEK2 (Homo sapiens, UniProt P51955); enzyme activity).
It gave 4% for inhibition (MUSK (Homo sapiens, UniProt O15146); enzyme activity).
For Tyrosine-protein kinase ABL1, phosphorylated (ABL1, Homo sapiens, UniProt P00519, M351T); enzyme activity: inhibition read 0%.
The inhibition was 31% (EGFR (Homo sapiens, UniProt P00533, L861Q); enzyme activity).
It gave 0% for inhibition (FYN (Homo sapiens, UniProt P06241); enzyme activity).
PIK3CA (Homo sapiens, UniProt P42336, H1047Y); enzyme activity — inhibition: 27%.

Study 3
Target: Calcium/calmodulin-dependent protein kinase type 1G (CAMK1G, Homo sapiens, UniProt Q96NX5)
UniProt Q96NX5, sequence (whole entry, looked up): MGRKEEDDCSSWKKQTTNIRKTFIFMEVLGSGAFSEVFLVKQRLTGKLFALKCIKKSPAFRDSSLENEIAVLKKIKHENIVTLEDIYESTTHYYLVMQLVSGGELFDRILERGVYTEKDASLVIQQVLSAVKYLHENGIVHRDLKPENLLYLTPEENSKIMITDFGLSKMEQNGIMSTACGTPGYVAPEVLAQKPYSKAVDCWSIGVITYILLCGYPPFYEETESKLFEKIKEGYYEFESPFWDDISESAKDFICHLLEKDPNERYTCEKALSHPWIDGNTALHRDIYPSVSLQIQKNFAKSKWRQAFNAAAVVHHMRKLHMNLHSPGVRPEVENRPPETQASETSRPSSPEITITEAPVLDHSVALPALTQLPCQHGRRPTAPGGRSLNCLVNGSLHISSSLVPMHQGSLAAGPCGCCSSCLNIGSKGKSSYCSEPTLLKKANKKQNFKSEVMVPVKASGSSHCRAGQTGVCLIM
Read-out: enzyme activity
Mode: inhibitor
Tested at: 0.5 µM
Baseline: control
The remaining activity of `COc1cc2c(cc1OC)-c1[nH]nc(Nc3cccc(F)c3)c1C2` is reported as 101%.
The remaining activity of `Cn1nc2c3c(cccc31)C(=O)c1ccccc1-2` is reported as 95.5%.
For `O=C1C(Cl)=C(N2C(=O)CCC2=O)C(=O)c2ccccc21`, the remaining activity was 98.2%.
With `C[C@@H]1CCN(C(=O)CC#N)C[C@@H]1N(C)c1ncnc2[nH]ccc12` the remaining activity was 97.8%.
With `O=C1c2ccccc2-c2n[nH]c3cccc1c23` the remaining activity was 101%.
`N#C/C(=C\c1ccc(O)c(O)c1)C(=O)NCc1ccccc1` gave a remaining activity of 98.7%.
With `Cc1cc2ncc(-c3ccccc3)nc2cc1C` the remaining activity was 101%.
The remaining activity of `CCN(CC)C(=O)c1ccc(Nc2nc(OCC3CCCCC3)c3[nH]cnc3n2)cc1` is reported as 96.1%.
The remaining activity of `Cc1nc2cc3nc(-c4cccs4)cnc3cc2n1C` is reported as 106%.
`COc1cc2ncnc(Nc3ccc(O)c(Br)c3)c2cc1OC` has a remaining activity of 103%.
With `O=C(NC(NC(=S)Nc1ccc(F)c([N+](=O)[O-])c1)C(Cl)(Cl)Cl)C(c1ccccc1)c1ccccc1` (stereo not shown) the remaining activity was 102%.
The remaining activity of `Cc1cn(-c2cc(NC(=O)c3ccc(C)c(Nc4nccc(-c5cccnc5)n4)c3)cc(C(F)(F)F)c2)cn1` is reported as 110%.
The remaining activity of `COc1cc2ncnc(Nc3cccc(Cl)c3)c2cc1OC` is reported as 93.6%.
`O=c1cc(-c2cccc3c2Sc2ccccc2S3)oc(N2CCOCC2)c1` has a remaining activity of 99.4%.
`CCOc1nc(NC(=O)Cc2cc(OC)ccc2OC)cc(N)c1C#N` has a remaining activity of 100%.
`CCN(CC)CCNC(=O)c1c(C)[nH]c(/C=C2\C(=O)Nc3ccc(Cl)cc32)c1C` gave a remaining activity of 49.5%.
`Ic1cccc(CSc2nnc(-c3ccncc3)o2)c1` has a remaining activity of 95.9%.
`N#Cc1c(NC(=O)c2cccc3ccccc23)sc2c1CCCC2` gave a remaining activity of 97.7%.
`CN(C)C[C@H]1CCn2c(c(C3=C(c4cn(C)c5ccccc45)C(=O)NC3=O)c3ccccc32)C1` has a remaining activity of 95.8%.
For `Nc1cccc(-c2cc3c(Oc4cccc(O)c4)ncnc3[nH]2)c1`, the remaining activity was 99%.
`c1ccc(-c2cnc(Nc3ccc(OCCN4CCCC4)cc3)s2)cc1` has a remaining activity of 101%.
`CN([C@@H](Cc1ccc(OS(=O)(=O)c2cccc3cnccc23)cc1)C(=O)N1CCN(c2ccccc2)CC1)S(=O)(=O)c1cccc2cnccc12` has a remaining activity of 93.6%.
With `O=C(Nc1cccc(Nc2nccc(Nc3cccc(C(F)(F)F)c3)n2)c1)C1CC1` the remaining activity was 98.8%.

Study 4
SMILES: CC(=O)C1=C(C)N(c2cccc(C(F)(F)F)c2)C(=O)N[C@@H]1c1ccc(C#N)nc1
Read-out: cell-free assay
Method: competition with immobilised ligand
Tested at: 1 µM
It gave 62.1% for remaining binding (TNK1 (Homo sapiens, UniProt Q13470)).
The remaining binding was 98.1% (MET (Homo sapiens, UniProt P08581)).
It gave 100% for remaining binding (LATS2 (Homo sapiens, UniProt Q9NRM7)).
For MAP3K11 (Homo sapiens, UniProt Q16584): remaining binding read 100%.
STK38 (Homo sapiens, UniProt Q15208) — remaining binding: 94.1%.
The remaining binding was 98.2% (PAK2 (Homo sapiens, UniProt Q13177)).
It gave 100% for remaining binding (Ribosomal protein S6 kinase alpha-3, N-terminal kinase domain (RPS6KA3, Homo sapiens, UniProt P51812)).
It gave 87.6% for remaining binding (PIK3CA (Homo sapiens, UniProt P42336, H1047Y)).
For Tyrosine-protein kinase ABL1, non-phosphorylated (ABL1, Homo sapiens, UniProt P00519): remaining binding read 96.5%.
It gave 100% for remaining binding (Ribosomal protein S6 kinase alpha-2, C-terminal kinase domain (RPS6KA2, Homo sapiens, UniProt Q15349)).
MAP4K5 (Homo sapiens, UniProt Q9Y4K4) — remaining binding: 100%.
It gave 78.6% for remaining binding (TNK2 (Homo sapiens, UniProt Q07912)).
It gave 100% for remaining binding (KIT (Homo sapiens, UniProt P10721, L576P)).
The remaining binding was 100% (KIT (Homo sapiens, UniProt P10721, V559D/V654A)).
For FGFR4 (Homo sapiens, UniProt P22455): remaining binding read 100%.
For PIKFYVE (Homo sapiens, UniProt Q9Y2I7): remaining binding read 90%.
MAP3K14 (Homo sapiens, UniProt Q99558) — remaining binding: 100%.
For DDR1 (Homo sapiens, UniProt Q08345): remaining binding read 71.5%.
It gave 98.1% for remaining binding (NTRK2 (Homo sapiens, UniProt Q16620)).
The remaining binding was 100% (CDKL5 (Homo sapiens, UniProt O76039)).
The remaining binding was 80.8% (KIT (Homo sapiens, UniProt P10721, A829P)).
The remaining binding was 100% (EPHB1 (Homo sapiens, UniProt P54762)).
For TAOK1 (Homo sapiens, UniProt Q7L7X3): remaining binding read 100%.
For CLK4 (Homo sapiens, UniProt Q9HAZ1): remaining binding read 88.3%.
For Tyrosine-protein kinase ABL1, phosphorylated (ABL1, Homo sapiens, UniProt P00519, Q252H): remaining binding read 94.3%.

Repeated from above (study 1):
For `CN(C)CCc1c[nH]c2ccc(Cn3cncn3)cc12`, the viability was 113%.
`OC1(c2ccc(Cl)c(C(F)(F)F)c2)CCN(CCCC(c2ccc(F)cc2)c2ccc(F)cc2)CC1` has a viability of 21.4%.
`N[C@@H](Cc1c[nH]c2ccc(O)cc12)C(=O)O` has a viability of 111%.
`CN[C@@H]1[C@H](O)[C@H](NC)[C@H]2O[C@@]3(O)C(=O)C[C@@H](C)O[C@H]3O[C@@H]2[C@H]1O` gave a viability of 112%.
`CCN[C@H]1CN(CCCOC)S(=O)(=O)c2sc(S(N)(=O)=O)cc21` has a viability of 96.5%.
